Experimental data gathered from unrelated publications.
Numbered parts are unrelated; each lists some results of a single study. Values joined by “and” are separate records of one study, mostly repeats; a detail may differ.
UniProt P28482, sequence (whole entry, looked up): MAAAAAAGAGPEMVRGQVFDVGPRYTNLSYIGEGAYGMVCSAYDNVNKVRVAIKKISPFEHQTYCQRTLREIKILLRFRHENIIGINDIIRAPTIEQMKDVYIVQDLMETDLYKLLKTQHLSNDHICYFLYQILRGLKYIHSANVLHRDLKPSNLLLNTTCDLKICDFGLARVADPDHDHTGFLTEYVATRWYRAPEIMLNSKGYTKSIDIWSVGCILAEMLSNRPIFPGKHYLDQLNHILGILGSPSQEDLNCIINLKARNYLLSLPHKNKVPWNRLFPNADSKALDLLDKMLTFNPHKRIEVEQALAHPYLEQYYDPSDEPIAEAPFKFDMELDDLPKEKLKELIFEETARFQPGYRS
UniProt P49841, sequence (whole entry, looked up): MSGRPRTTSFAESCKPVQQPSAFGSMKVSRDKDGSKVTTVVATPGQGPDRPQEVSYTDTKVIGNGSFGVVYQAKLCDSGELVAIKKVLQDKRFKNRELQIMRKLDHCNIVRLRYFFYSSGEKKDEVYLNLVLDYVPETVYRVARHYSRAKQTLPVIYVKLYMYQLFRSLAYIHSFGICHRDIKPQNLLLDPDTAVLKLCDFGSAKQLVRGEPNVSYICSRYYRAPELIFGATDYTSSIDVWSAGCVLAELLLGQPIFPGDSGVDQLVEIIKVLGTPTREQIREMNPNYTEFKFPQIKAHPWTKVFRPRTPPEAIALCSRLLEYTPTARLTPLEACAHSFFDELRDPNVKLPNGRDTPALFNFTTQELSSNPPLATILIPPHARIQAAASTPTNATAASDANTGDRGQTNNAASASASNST
UniProt Q14289, sequence (whole entry, looked up): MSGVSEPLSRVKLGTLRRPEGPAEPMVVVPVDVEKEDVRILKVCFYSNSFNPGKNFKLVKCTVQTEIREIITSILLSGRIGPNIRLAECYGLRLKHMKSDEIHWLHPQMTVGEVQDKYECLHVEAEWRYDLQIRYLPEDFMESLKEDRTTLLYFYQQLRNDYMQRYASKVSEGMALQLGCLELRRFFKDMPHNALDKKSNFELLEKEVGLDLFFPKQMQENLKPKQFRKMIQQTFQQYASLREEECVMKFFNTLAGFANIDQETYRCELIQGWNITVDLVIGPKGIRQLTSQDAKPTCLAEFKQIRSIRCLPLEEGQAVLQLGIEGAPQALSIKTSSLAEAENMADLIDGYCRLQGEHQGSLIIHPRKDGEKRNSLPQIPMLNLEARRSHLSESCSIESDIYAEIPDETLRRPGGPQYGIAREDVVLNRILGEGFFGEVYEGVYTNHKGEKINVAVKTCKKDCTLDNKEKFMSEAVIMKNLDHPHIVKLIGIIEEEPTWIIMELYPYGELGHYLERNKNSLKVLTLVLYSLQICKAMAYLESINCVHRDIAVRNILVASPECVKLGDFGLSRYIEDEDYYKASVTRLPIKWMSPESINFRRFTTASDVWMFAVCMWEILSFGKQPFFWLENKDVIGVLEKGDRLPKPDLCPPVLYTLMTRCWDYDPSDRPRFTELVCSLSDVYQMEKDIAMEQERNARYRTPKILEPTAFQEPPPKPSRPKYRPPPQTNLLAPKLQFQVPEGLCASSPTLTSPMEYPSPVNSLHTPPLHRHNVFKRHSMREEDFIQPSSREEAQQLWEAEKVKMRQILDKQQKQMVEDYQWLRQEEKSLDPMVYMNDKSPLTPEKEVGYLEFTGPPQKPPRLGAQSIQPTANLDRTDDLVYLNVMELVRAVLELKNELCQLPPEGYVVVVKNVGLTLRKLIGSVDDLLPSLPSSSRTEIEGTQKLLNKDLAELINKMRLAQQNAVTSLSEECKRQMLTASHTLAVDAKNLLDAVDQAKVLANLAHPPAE

Series 1
SMILES: C[C@H](NC(=O)Nc1cc2[nH]ncc2c(CO)n1)c1ccccn1
GSK3A: Glycogen synthase kinase-3 alpha (GSK3A, Homo sapiens, UniProt P49840)
UniProt P49840, sequence (whole entry, looked up): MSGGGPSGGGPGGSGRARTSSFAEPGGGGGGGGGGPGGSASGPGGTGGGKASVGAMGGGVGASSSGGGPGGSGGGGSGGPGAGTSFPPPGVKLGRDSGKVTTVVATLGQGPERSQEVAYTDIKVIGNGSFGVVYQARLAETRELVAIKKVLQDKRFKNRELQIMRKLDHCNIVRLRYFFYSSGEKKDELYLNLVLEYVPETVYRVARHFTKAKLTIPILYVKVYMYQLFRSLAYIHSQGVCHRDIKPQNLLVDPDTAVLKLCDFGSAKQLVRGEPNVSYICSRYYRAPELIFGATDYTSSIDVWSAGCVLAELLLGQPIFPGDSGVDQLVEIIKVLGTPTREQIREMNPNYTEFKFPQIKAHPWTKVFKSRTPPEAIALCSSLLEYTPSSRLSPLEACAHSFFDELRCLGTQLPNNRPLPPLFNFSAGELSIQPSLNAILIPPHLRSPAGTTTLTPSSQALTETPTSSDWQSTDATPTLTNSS
target	read-out	technique	medium	EC50
SGK1 (Homo sapiens, UniProt O00141)	target engagement in cells	BRET	–	> 50 µM
MAPK1 (Homo sapiens, UniProt P28482)	target engagement	NanoBRET	live cells	23.4 µM and 11.9 µM and 18.6 µM
MAPK3 (Homo sapiens, UniProt P27361)	target engagement in cells	BRET	–	6.7 µM
GSK3A	target engagement	NanoBRET	live cells	> 50 µM
GSK3B (Homo sapiens, UniProt P49841)	target engagement	NanoBRET	live cells	> 50 µM
GSK3A	target engagement in cells	BRET	–	> 50 µM

Series 2
Cell line: A-375
Tested at: 100 µM
Time: 60 h
Structure (SMILES)	viability
CC(c1cc2ccccc2s1)N(O)C(N)=O (stereo not drawn)	96.4%
CC(=O)O[C@H]1C(=O)[C@@]2(C)[C@H]([C@H](OC(=O)c3ccccc3)[C@]3(O)C[C@H](OC(=O)[C@H](O)[C@@H](NC(=O)c4ccccc4)c4ccccc4)C(C)=C1C3(C)C)[C@]1(OC(C)=O)CO[C@@H]1C[C@@H]2O	10.4%
CCN1CCN(Cc2ccc(Nc3ncc(F)c(-c4cc(F)c5nc(C)n(C(C)C)c5c4)n3)nc2)CC1	102%
Nc1ccc2cc3ccc(N)cc3nc2c1	19.6%

Series 3
Compound: CCN1/C(=C/C(C)=O)Sc2ccc(OC)cc21
Read-out: enzyme activity
Action: inhibitor
Tested at: 0.5 µM
Reference: control
target	remaining activity
ROCK2 (Homo sapiens, UniProt O75116)	90.7%
PRKD1 (Homo sapiens, UniProt Q15139)	78.1%
Cyclin-dependent kinase 2, with cyclin A (CDK2, Homo sapiens, UniProt P24941)	89.7%
EGFR (Homo sapiens, UniProt P00533)	99.1%
NTRK3 (Homo sapiens, UniProt Q16288)	91.9%
BRSK1 (Homo sapiens, UniProt Q8TDC3)	89.4%
SLK (Homo sapiens, UniProt Q9H2G2)	86.8%
NEK9 (Homo sapiens, UniProt Q8TD19)	102%
PTK2B (Homo sapiens, UniProt Q14289)	97.8%
HIPK3 (Homo sapiens, UniProt Q9H422)	100%
CSNK2A2 (Homo sapiens, UniProt P19784)	89.7%
RET (Homo sapiens, UniProt P07949)	96.5%
DYRK4 (Homo sapiens, UniProt Q9NR20)	82.3%
MAP3K2 (Homo sapiens, UniProt Q9Y2U5)	101%
CAMK1D (Homo sapiens, UniProt Q8IU85)	105%
CDK7 (Homo sapiens, UniProt P50613)	94.8%
DMPK (Homo sapiens, UniProt Q09013)	101%
ROS1 (Homo sapiens, UniProt P08922)	113%
Aurora kinase A (AURKA, Homo sapiens, UniProt O14965)	108%
GRK5 (Homo sapiens, UniProt P34947)	108%
PKN2 (Homo sapiens, UniProt Q16513)	99.7%
MAP3K8 (Homo sapiens, UniProt P41279)	103%
MAPK10 (Homo sapiens, UniProt P53779)	102%
CAMK1G (Homo sapiens, UniProt Q96NX5)	101%

Series 4
Target: DNA polymerase theta, helicase domain (POLQ, Homo sapiens, UniProt O75417)
UniProt O75417, sequence (whole entry, looked up): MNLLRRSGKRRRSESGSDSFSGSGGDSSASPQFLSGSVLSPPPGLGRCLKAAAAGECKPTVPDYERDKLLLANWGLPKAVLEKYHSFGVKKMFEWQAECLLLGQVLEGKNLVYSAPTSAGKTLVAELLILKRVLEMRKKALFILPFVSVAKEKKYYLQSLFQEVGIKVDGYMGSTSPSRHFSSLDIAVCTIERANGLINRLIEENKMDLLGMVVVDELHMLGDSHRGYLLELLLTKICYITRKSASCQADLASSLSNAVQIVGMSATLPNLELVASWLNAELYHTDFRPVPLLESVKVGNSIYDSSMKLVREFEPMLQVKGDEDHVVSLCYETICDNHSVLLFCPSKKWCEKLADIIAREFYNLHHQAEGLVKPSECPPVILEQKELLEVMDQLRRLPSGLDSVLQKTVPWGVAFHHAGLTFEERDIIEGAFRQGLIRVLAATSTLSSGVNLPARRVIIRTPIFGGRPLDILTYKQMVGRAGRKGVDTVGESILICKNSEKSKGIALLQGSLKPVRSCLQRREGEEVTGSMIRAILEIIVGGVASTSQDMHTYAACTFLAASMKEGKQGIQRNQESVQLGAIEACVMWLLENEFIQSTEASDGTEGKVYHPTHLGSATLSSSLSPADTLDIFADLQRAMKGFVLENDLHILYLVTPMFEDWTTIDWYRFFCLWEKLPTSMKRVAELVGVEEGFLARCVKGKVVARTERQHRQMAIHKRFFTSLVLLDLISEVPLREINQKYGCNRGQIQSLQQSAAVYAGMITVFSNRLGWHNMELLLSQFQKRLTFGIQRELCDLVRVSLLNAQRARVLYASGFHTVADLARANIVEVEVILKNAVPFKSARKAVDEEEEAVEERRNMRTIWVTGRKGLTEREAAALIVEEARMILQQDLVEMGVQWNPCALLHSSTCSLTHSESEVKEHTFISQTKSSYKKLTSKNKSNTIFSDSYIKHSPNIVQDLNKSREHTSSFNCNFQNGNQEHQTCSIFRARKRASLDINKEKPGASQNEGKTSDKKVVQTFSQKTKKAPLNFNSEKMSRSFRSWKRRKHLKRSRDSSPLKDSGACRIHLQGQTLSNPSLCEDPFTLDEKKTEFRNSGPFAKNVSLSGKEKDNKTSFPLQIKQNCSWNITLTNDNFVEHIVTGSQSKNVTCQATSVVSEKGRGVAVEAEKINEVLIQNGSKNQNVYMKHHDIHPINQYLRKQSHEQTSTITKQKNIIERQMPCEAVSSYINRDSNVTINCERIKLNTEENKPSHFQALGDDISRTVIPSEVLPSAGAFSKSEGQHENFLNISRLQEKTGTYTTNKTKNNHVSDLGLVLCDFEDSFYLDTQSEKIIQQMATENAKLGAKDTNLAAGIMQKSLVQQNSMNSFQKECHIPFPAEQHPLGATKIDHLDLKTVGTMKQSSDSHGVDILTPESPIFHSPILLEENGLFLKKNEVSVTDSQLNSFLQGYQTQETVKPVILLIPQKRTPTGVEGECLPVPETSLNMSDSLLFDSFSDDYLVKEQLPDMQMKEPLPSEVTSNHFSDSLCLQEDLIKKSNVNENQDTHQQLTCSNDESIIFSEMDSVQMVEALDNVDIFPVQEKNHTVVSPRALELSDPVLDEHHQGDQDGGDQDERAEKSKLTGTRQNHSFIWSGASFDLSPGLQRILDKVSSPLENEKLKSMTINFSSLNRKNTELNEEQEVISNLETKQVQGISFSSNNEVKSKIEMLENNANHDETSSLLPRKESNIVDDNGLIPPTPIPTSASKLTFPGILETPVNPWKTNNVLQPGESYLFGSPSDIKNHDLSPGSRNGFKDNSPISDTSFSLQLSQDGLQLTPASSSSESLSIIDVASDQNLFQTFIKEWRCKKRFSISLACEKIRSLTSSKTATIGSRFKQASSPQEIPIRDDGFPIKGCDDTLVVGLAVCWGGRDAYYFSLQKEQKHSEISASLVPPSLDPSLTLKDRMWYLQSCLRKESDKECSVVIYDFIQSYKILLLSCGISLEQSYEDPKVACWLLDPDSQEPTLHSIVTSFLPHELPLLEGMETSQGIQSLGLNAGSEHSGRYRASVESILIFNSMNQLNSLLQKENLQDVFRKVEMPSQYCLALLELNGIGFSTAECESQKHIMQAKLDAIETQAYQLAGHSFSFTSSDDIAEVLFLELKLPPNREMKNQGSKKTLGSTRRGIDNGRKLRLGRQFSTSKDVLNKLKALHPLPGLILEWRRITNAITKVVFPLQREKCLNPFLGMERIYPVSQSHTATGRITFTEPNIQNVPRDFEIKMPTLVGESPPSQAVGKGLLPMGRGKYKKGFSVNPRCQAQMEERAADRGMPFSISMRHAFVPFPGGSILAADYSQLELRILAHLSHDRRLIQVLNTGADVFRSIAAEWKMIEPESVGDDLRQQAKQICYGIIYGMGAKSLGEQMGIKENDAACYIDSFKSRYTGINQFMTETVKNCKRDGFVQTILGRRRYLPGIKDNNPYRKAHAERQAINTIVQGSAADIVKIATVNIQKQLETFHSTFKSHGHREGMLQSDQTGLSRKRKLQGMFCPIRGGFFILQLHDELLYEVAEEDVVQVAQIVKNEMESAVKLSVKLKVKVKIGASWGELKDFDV
Read-out: ATPase activity
Tested at: concentration not given
Notes: average
With: with ssDNA
Compound	remaining activity
O=C(CSc1ncc(S(=O)(=O)c2ccc(Br)cc2)c(=O)[nH]1)NCc1ccc(Cl)cc1	56.3%
CC1=Nc2cc(C(=O)NCCc3ccc(Cl)cc3)ccc2Sc2ccc(C)cc21	64.9%
CCCCCCCCCCCCc1ccc(S(=O)(=O)Nc2nncs2)cc1	103%
CCC(C)(Oc1ccc(C2(c3ccc(OC(C)(CC)C(=O)O)cc3)CCCCC2)cc1)C(=O)O (stereo not drawn)	66.2%
CCOc1ccc2nc3cc(N)ccc3c(N)c2c1	33.2%
Cc1c(Cl)cccc1NC(=O)CSc1ncc(S(=O)(=O)c2ccc(C(C)C)cc2)c(=O)[nH]1	69.3%
CCOc1nc2cccc(C(=O)OCc3oc(=O)oc3C)c2n1Cc1ccc(-c2ccccc2-c2noc(=O)[nH]2)cc1	42.2%
COc1cc(NC(=O)CSc2ncc(S(=O)(=O)c3ccc(Br)cc3)c(=O)[nH]2)cc(OC)c1	79.5%
COC(=O)c1cc(Cl)ccc1NC(=O)CSc1ncc(S(=O)(=O)c2ccc(Br)cc2)c(=O)[nH]1	36.7%
Cc1ccc(C(=O)Nc2ccc(S(=O)(=O)[O-])c3cc(S(=O)(=O)[O-])cc(S(=O)(=O)[O-])c23)cc1NC(=O)c1cccc(NC(=O)Nc2cccc(C(=O)Nc3cc(C(=O)Nc4ccc(S(=O)(=O)[O-])c5cc(S(=O)(=O)[O-])cc(S(=O)(=O)[O-])c45)ccc3C)c2)c1.[Na+].[Na+].[Na+].[Na+].[Na+].[Na+]	2.64%
O=C(Nc1cc2cc[nH]c2cn1)c1ccccc1	55.3%

Other studies, line by line
Read-out: binding
Action: competitor
Technique: NanoBRET
Cell line: HEK293
Compound	target	tested at	normalized BRET
C=C(F)C(=O)N1CCN(c2nc(OC[C@@H]3CCCN3C)nc3c2CCN(c2cccc4cccc(Cl)c24)C3)C[C@@H]1CC#N	GTPase HRas (HRAS, Homo sapiens, UniProt P01112)	39.1 nM	89.9%
CCC(=O)N1CCN(c2nc(OC[C@@H]3CCCN3C)nc3c2CCN(c2cccc4cccc(Cl)c24)C3)C[C@@H]1CC#N	GTPase KRas (KRAS, Homo sapiens, UniProt P01116, G13D)	11.1 µM	15.5% and 10.5% and 13%
CC(=O)N1CCN(c2nc(OC[C@@H]3CCCN3C)nc3c2CCN(c2cccc4cccc(Cl)c24)C3)C[C@@H]1CC#N	GTPase KRas (KRAS, Homo sapiens, UniProt P01116, G12D)	33.3 µM	61.9% and 62.6% and 61.4%

For quick reference, copied from above (series 3):
target	remaining activity
NTRK3 (Homo sapiens, UniProt Q16288)	91.9%
BRSK1 (Homo sapiens, UniProt Q8TDC3)	89.4%
SLK (Homo sapiens, UniProt Q9H2G2)	86.8%
